Measured values collected from several papers.
Numbered parts are unrelated; each lists some results of a single study. “And” joins repeats or separate records; there may be more than shown. Converted amounts (≈) assume the structure as drawn.
Chain of UniProt Q96SW2 (whole entry, looked up): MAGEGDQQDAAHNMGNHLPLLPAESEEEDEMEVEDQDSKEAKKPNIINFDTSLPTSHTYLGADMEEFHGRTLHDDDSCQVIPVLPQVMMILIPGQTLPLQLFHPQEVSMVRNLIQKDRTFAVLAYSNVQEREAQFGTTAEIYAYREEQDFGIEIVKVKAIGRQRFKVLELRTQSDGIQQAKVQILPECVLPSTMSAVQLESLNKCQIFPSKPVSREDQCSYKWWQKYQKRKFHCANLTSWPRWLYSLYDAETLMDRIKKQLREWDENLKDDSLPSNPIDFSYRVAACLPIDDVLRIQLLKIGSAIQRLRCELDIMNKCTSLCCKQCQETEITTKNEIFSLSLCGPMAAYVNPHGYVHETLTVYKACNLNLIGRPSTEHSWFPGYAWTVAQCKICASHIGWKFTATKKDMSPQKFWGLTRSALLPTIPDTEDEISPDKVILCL

Sample 1 — time: time not given
SMILES: Cn1cc(-c2cccc(CN3CCC4(CC3)COc3c4ccc4c3CN([C@H]3CCC(=O)NC3=O)C4=O)c2)cn1
Caco-2; apical to basolateral — recovery: 78.1%.
It gave 63.3% for recovery (plasma protein binding; rat plasma).
It gave 58.9% for recovery (Caco-2; basolateral to apical).
The recovery was 73.5% (plasma protein binding; monkey plasma).
For plasma protein binding; mouse plasma: recovery read 72.8%.
plasma protein binding; human plasma — recovery: 83.1%.

Sample 2 — organism: Staphylococcus aureus; strain: USA300
SMILES: CCCCC[C@@H](O)CC(=O)N[C@H]1COC(=O)[C@H](CO)NC(=O)[C@H](Cc2ccccc2)NC(=O)[C@@H](Cc2c[nH]c3ccccc23)NC(=O)[C@@H](C(C)O)NC(=O)[C@H](CC(N)=O)NC(=O)[C@@H](C(C)C)NC(=O)[C@H](CC(C)C)NC(=O)[C@@H](Cc2ccc(O)cc2)N(C)C(=O)CNC(=O)[C@H](CO)NC(=O)[C@@H](CC(N)=O)NC1=O (some centres unmarked)
The MIC was 16 µg/mL (≈ 10.6 µM) (together with: menaquinone 0.5 µg/mL).
It gave 4 µg/mL (≈ 2.64 µM) for MIC (together with: ubiquinone 4 µg/mL).
For together with: ubiquinone 64 µg/mL: MIC read 8 µg/mL (≈ 5.29 µM).
For together with: menaquinone 2 µg/mL: MIC read 32 µg/mL (≈ 21.2 µM).

Single results of other studies
For C#CCN1C(=O)C(O)(C(=O)O)Oc2cc(F)ccc21 (centres unmarked), the hypocotyl length was 0.1 cm and 0.11 cm and 0.07 cm (Arabidopsis thaliana; Col-0; 100 µg/mL, seed germination, single repetition).
CC(C)OC(=O)[C@H](CCC(=O)C=[N+]=[N-])NC(=O)[C@H](Cc1c[nH]c2ccccc12)NC(=O)C12CCN(CC1)CC2 has a DON concentration of 0 nmol/mL (P493B lymphoma cells; human plasma; concentration not given, plasma fraction of partition).
O=C1CC[C@H](Nc2ccc(N3CCNCC3)c(F)c2)C(=O)N1 has an inhibition of 100% and 94.8% (Protein cereblon (CRBN, Homo sapiens, UniProt Q96SW2); binding; 10000 nM).
C=CCN1C(=O)C(O)(C(=O)O)Oc2cc(F)ccc21 (centres unmarked) gave a hypocotyl length of 1.84 cm and 1.83 cm and 1.85 cm and 1.81 cm and 1.8 cm (Arabidopsis thaliana; Col-0; 12.5 µg/mL, seed germination, single repetition).

Some of these lines once more (single results of other studies):
For C#CCN1C(=O)C(O)(C(=O)O)Oc2cc(F)ccc21 (centres unmarked), the hypocotyl length was 0.1 cm and 0.11 cm and 0.07 cm (Arabidopsis thaliana; Col-0; 100 µg/mL, seed germination, single repetition).
CC(C)OC(=O)[C@H](CCC(=O)C=[N+]=[N-])NC(=O)[C@H](Cc1c[nH]c2ccccc12)NC(=O)C12CCN(CC1)CC2 has a DON concentration of 0 nmol/mL (P493B lymphoma cells; human plasma; concentration not given, plasma fraction of partition).
